Measurements from different studies.
Compare with care: the assays were run in different laboratories. ± marks the error that the study gave.

| Compound | assay | system | conditions | how to read | measurement | result |
| --- | --- | --- | --- | --- | --- | --- |
| COc1cc(/C=C/C(=O)NCCCCCC(=O)N[C@@H](CCCNC(=N)N)C(=O)N[C@@H](CC(C)C)C(=O)N[C@@H](CC(C)C)C(=O)N[C@@H](CCCNC(=N)N)C(=O)N[C@@H](CCCNC(=N)N)C(=O)N[C@@H](CC(C)C)C(=O)N[C@@H](CC(C)C)C(=O)N[C@@H](CCCNC(=N)N)C(N)=O)ccc1O | RP-HPLC, C18 column | – | – | higher is more hydrophobic | retention time | 6.7 min |
| N=C(N)NCCC[C@@H]1NC(=O)[C@H](CCCCNC(=O)CCC(C(=O)O)N2CCCN3CCN(CCCN(C(CCC(=O)NCCCC[C@@H]4NC(=O)[C@@H](Cc5ccc(O)cc5)NC(=O)[C@H](CC(=O)O)NC(=O)CNC(=O)[C@H](CCCNC(=N)N)NC4=O)C(=O)O)CC3)CC2)NC(=O)[C@@H](Cc2ccc(O)cc2)NC(=O)[C@H](CC(=O)O)NC(=O)CNC1=O (stereo partly shown) [copper-64 labelled] | – | SCID mouse, PC-3 xenograft, tumour | iv, dose not given, 1 h | – | tumour uptake | 2.92 ± 0.26 %ID/g |
| CC(C)C[C@H](NC(=O)[C@@H](CCCCNC(=O)CCCCCNC(=O)CN1CCN(CC(=O)O)CCN(CC(=O)O)CCN(CC(=O)O)CC1)NC(=O)[C@H](Cc1ccc(O)cc1)NC(=O)[C@H](CO)NC(=O)[C@H](Cc1c[nH]c2ccccc12)NC(=O)[C@H](Cc1cnc[nH]1)NC(=O)[C@@H]1CCC(=O)N1)C(=O)N[C@@H](CCCNC(=N)N)C(=O)N1CCC[C@H]1C(=O)NCC(N)=O [indium-111 labelled] | – | female athymic nude mouse, kidneys | intravenous, 0.037 MBq, 2 h | – | tissue uptake | 8.88 ± 1.26 %ID/g |
| CCCC[C@H](NC(=O)CNC(=O)CNC(=O)CN1CCN(CC(=O)O)CCN(CC(=O)O)CCN(CC(=O)O)CC1)C(=O)N[C@H]1CC(=O)NCCCC[C@@H](C(N)=O)NC(=O)[C@H](Cc2c[nH]c3ccccc23)NC(=O)[C@H](CCCNC(=N)N)NC(=O)[C@@H](Cc2ccccc2)NC(=O)[C@H](Cc2c[nH]cn2)NC1=O [lutetium-177 labelled] | – | C57 mouse, female, lung | intravenous, 0.037 MBq, 2 h | – | tissue uptake | 0.38 ± 0.05 %ID/g |
| C=C1CC[C@H](OCCCNC(=O)CCOCCOCCOCCOCCOCCOCCOCCOCCOCCOCCOCCOCCOCCOCCOCCOCCOCCOCCOCCOCCOCCOCCOCCOCCOCCOCCOCCOCCOCCOCCOCCOCCOCCOCCOCCOCCNC(=O)CCN2C(=O)CC(SC[C@H](NC(=O)[C@H](Cc3ccccc3)NC(=O)[C@H](CC(N)=O)NC(=O)[C@H](Cc3c[nH]cn3)NC(=O)[C@@H](NC(=O)[C@H](CC(=O)O)NC(=O)[C@H](CCC(N)=O)NC(=O)[C@H](CC(C)C)NC(=O)[C@H](CCCCN)NC(=O)[C@H](CCCCN)NC(=O)[C@H](CCCNC(=N)N)NC(=O)[C@H](CC(C)C)NC(=O)[C@H](Cc3c[nH]c4ccccc34)NC(=O)[C@H](CCC(=O)O)NC(=O)[C@@H](NC(=O)[C@H](CCCNC(=N)N)NC(=O)[C@H](CCC(=O)O)NC(=O)[C@H](CCSC)NC(=O)[C@H](CO)NC(=O)[C@H](CC(N)=O)NC(=O)[C@H](CC(C)C)NC(=O)[C@H](Cc3c[nH]cn3)NC(=O)[C@H](CCCCN)NC(=O)CNC(=O)[C@H](CC(C)C)NC(=O)[C@H](CC(N)=O)NC(=O)[C@H](Cc3c[nH]cn3)NC(=O)[C@H](CCSC)NC(=O)[C@H](CC(C)C)NC(=O)[C@H](CCC(N)=O)NC(=O)[C@@H](NC(=O)[C@H](CCC(=O)O)NC(=O)[C@H](CO)NC(=O)[C@@H](NC(=O)[C@@H](N)CO)C(C)C)[C@@H](C)CC)C(C)C)C(C)C)C(N)=O)C2=O)C/C1=C/C=C1\CCC[C@]2(C)[C@@H]([C@H](C)CCCC(C)(C)O)CC[C@@H]12 (stereo partly shown) | – | Sprague Dawley rat | subcutaneous, 10 µg/kg daily, 89 days | relative to: 1 µg/kg dose | dose-normalized Cmax | 1.34 |
| NC(=O)CCOCCOCCOCCOCCOCCOCCNC(=O)[C@H](Cc1c[nH]cn1)NC(=O)[C@H](Cc1c[nH]cn1)NC(=O)c1ccc(-c2c3nc(c(-c4ccccc4)c4ccc([nH]4)c(-c4ccc(C(=O)N[C@@H](Cc5c[nH]cn5)C(=O)N[C@@H](Cc5c[nH]cn5)C(=O)NCCOCCOCCOCCOCCOCCOCCC(N)=O)cc4)c4nc(c(-c5ccccc5)c5ccc2[nH]5)C=C4)C=C3)cc1 | pH titration | – | imidazole group | – | pKa | 5.7 |
| CCCC[C@H](NC(=O)CNC(=O)CNC(=O)CN1CCN(CC(=O)O)CCN(CC(=O)O)CC1)C(=O)N[C@H]1CC(=O)NCCCC[C@@H](C(N)=O)NC(=O)[C@H](Cc2c[nH]c3ccccc23)NC(=O)[C@H](CCCNC(=N)N)NC(=O)[C@@H](Cc2ccccc2)NC(=O)[C@H](Cc2c[nH]cn2)NC1=O [technetium-99m labelled] | – | C57 mouse, pancreas | iv, 0.037 MBq, 24 h | – | tissue uptake | 0.03 ± 0.05 %ID/g |
| COc1cc(/C=C/C(=O)NCCCCCC(=O)N[C@@H](CCCNC(=N)N)C(=O)N[C@@H](CC(C)C)C(=O)N[C@@H](CC(C)C)C(=O)N[C@@H](CCCNC(=N)N)C(N)=O)ccc1O | RP-HPLC, C18 column | – | – | higher is more hydrophobic | retention time | 5.5 min |
| CCCC[C@H](NC(=O)CCCCCCCNC(=O)CN1CCN(CC(=O)O)CCN(CC(=O)O)CC1)C(=O)N[C@H]1CC(=O)NCCCC[C@@H](C(N)=O)NC(=O)[C@H](Cc2c[nH]c3ccccc23)NC(=O)[C@H](CCCNC(=N)N)NC(=O)[C@@H](Cc2ccccc2)NC(=O)[C@H](Cc2c[nH]cn2)NC1=O [copper-64 labelled] | – | C57 mice, skin | intravenous, 0.37 MBq, 24 h | – | tissue uptake | 0.02 ± 0.02 %ID/g |
| N=C(N)NCCC[C@@H]1NC(=O)[C@H](CCCCNC(=O)CC[C@H](NC(=O)CCOCCOCCOCCOCCNC(=O)CN2CCN(CC(=O)O)CCN(CC(=O)O)CC2)C(=O)NCCCC[C@@H]2NC(=O)[C@@H](Cc3ccccc3)NC(=O)[C@H](CC(=O)O)NC(=O)CNC(=O)[C@H](CCCNC(=N)N)NC2=O)NC(=O)[C@@H](Cc2ccccc2)NC(=O)[C@H](CC(=O)O)NC(=O)CNC1=O [fluorine-18 labelled] | – | athymic nude mouse, female, MDA-MB-435 xenograft, tumour | intravenous, dose not given | – | tumour uptake | 2.73 ± 0.64 %ID/g |
